Results from different studies.
Parts stem from different laboratories: compare values within a part only.

Study 1
Target: Ras GTPase-activating protein-binding protein 1, full length (G3BP1, Homo sapiens, UniProt Q13283)
Chain of UniProt Q13283 (whole entry, looked up): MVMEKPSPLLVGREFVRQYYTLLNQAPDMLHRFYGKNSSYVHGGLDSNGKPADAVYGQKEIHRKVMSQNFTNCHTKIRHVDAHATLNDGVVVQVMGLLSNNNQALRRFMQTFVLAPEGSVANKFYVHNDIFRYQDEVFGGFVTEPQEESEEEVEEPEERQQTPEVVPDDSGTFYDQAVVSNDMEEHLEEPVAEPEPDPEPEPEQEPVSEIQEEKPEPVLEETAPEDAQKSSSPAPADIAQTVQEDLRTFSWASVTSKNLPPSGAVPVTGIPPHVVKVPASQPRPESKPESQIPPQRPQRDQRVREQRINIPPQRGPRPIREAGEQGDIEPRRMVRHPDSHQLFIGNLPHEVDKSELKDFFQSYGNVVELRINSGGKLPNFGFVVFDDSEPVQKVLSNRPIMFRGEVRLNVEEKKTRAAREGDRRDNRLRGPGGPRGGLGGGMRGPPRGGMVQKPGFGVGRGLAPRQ
Technique: RNA Bind-n-Seq
Molecule type: RNA
Matrix: in vitro
Tested at: 200 nM
Setting: whole 134-nt RNA, ends assumed
With: 150 mM KCl
Relative to: input library
Reading: higher = stronger binding
All sequences stand within: GGGAGUUCUACAGUCCGACGAUC … UGGAAUUCUCGGGUGUCAAGG
The log2 enrichment of `UGGCCCUGGUGGCAUGCGGGGAGGAAGAGGUGGCCUCAUGGAUCGUGGUGGUCCCUGUGGAAUGUUCAGAGGUGGCCGUGGUGGAGACAG` is reported as -0.0525.
For `AAGUCCUGUGCUACACAUCGUAUGUACCGAAUCGGGGAAAAGGAAAAGGAAAAGGGGAAAGUAUUAUGUUACGCCGUUCGGAUCUGCACU`, the log2 enrichment was -0.527.
`AGUCCUGUGCUACACAUCGUAUGUACCGAAUCGGGUGGGUUUUUGGGAAAAAAAGGGAAAGUAUUAUGUUACGCCGUUCGGAUCUGCACU` has a log2 enrichment of -0.325.
`UGGGAGGUGGAUUUUGUUUAUUCUUUUAGCUCAUUUCCAGGGGUGGGAAUUUUUUUUUAAUAUGUGUCAUGAAUAAAGUUGUUUUUGAAA` gave a log2 enrichment of 0.0815.
`AGUCCUGUGCUACACAUCGUAUGUACCGAAUCGGGGUUUGGGGAGGGGAAAAAGGGGAAAGUAUUAUGUUACGCCGUUCGGAUCUGCACU` has a log2 enrichment of 0.209.
With `GCAGGAAGUAAAAACAAAUGGAAAUGCUUCGGAUAGUGGCAGGGGUGGGGGUUGCUAAGGAAAGGGUGGGAUGGGAGUGGGUAAAGAGAU` the log2 enrichment was 1.2.
`AAGUCCUGUGCUACACAUCGUAUGUACCGAAUCGGCCCCGGGGCCCCGGCCCCGGGAAAGUAUUAUGUUACGCCGUUCGGAUCUGCACUU` has a log2 enrichment of -1.28.
With `CACAGACAACACGCACCCACACAGACACAGAGGGACGGGGUUGGGAUGGGGACAGGGUGCACAGCAGGGCGGGGUAGGACCCCAGCCCCU` the log2 enrichment was 1.98.
`CAAGUCCUGUGCUACACAUCGUAUGUACCGAAUCGGAAAAAAAGGAGGAAAAAGGAAAGUAUUAUGUUACGCCGUUCGGAUCUGCACUUC` gave a log2 enrichment of -0.923.
The log2 enrichment of `AGUCCUGUGCUACACAUCGUAUGUACCGAAUCGGGUUUUUUUGGGAAAAAGGGUGGGAAAGUAUUAUGUUACGCCGUUCGGAUCUGCACU` is reported as 0.013.
`UGGCCCUGGUGGCAUGCGGGGAGGAAGAGGUGGCCUCAUGGAUCGUGGUGGUCCGGGUGGAAUGUUCAGAGGUGGCCGUGGUGGAGACAG` has a log2 enrichment of 0.141.
`CUGUGCUACACAUCGUAUGUACCGAAUCGGGUUUUUUUGGGUUUUUUUGGGUUUUUUUGGGAAAGUAUUAUGUUACGCCGUUCGGAUCUG` has a log2 enrichment of -1.
With `GCAGGAAGUAAAAACAAAUGGAAAUGCUUCGGAUAGUGGCAGGGGUGGGGGUUGCUAAGGAAAGGGUGGGAUGGGAGUGGGUAAAGAGUC` the log2 enrichment was 0.673.
`AAGUCCUGUGCUACACAUCGUAUGUACCGAAUCGGUUUUUGGAAAAAAAGGUUUGGAAAGUAUUAUGUUACGCCGUUCGGAUCUGCACUU` gave a log2 enrichment of -1.51.

Study 2
Target: RNA binding protein fox-1 homolog 2, RRM domain, GST-SBP tag (RBFOX2, Homo sapiens, UniProt O43251-10, residues 100-194)
Technique: RNA Bind-n-Seq
Molecule type: RNA
Matrix: in vitro
Tested at: 365 nM
Setting: natural RNA segment, single round, ends assumed
Relative to: no-protein control
Reading: higher = stronger binding
All sequences stand within: GGGAGUUCUACAGUCCGACGAUC … UGGAAUUCUCGGGUGCCAA
Residues (chain): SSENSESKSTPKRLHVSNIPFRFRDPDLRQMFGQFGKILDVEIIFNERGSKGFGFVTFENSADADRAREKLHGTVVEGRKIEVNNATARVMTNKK
Under “RBNS enrichment (R)”, `UGCUUAAACAUCUUAGGAAUUUUAAUAUAAAAAGAAAAGGCUUUCCCAUUUGCACUCUAUUUCAAAGAAUUGUUAUUGUUCCCUUUCGUUAAAAUCAGUGUUGGGAAUUA` is recorded as 0.608.
`GAUUAAGCCACACCUUUCCAUUUUUCAAUGCUGCAUAUUUAAUCUGCAAAAAAAAGUUAAGCCAUAACAGCCUUUUUAUAUUUUAAUUUGUCACCUUUGCAUUGCAGAAU` — result for “RBNS enrichment (R)”: 0.999.
For `UGCUAUGUAAAUUAGGACUUGCCUGCCAGGUCUCAGCUGUCAGUGGAGAGUAGGUUUCAGGAAACCGGUAGACUGUCAGCAGCUGCCUCAGAAACUGUUCACAAAAGUCA`, “RBNS enrichment (R)” read 0.658.
For `UUUGGCUGGCUUUCUAUCCACAAACCUAAAGCAGAGCUUGAAUGAUAAAUAGCAAGAAUGGAUGUGUAAUGUGACAAUCAAGGCAGAUAUUUGUUCUAGUUGGAAAGACG`, “RBNS enrichment (R)” read 1.06.
`UAGUAGUUUUUAUCACUAAAAAGUUGGACUUGGAGUCCUAUAGUAGUUUCAGCGUUAGAUAAAGUUUUUCCACCAUACAUCUUUAGGUGCAUUCAUCUUUAGGUGACUGA` — result for “RBNS enrichment (R)”: 0.437.
Under “RBNS enrichment (R)”, `GGGCUACUUCAGGCCCUUCUGUGUGUUGCCUGGCAGGAUACCUUGUCCAACCAGCUACCCACCUCAACUCCCCUGUAGUUUAGGACACAAAACAGCUACCAGCGGUACAG` is recorded as 0.22.
`GCCUAGAUCCCACUGGUAGGCCUCGUGGCUGGCAGCAGUGCUCUGGGAAUAAACAGCUGCCCUAGCCCCAGAGGGAUCCCUGCACCCAGGAGGCCUCCUGACACCAGCCA`: “RBNS enrichment (R)” 0.341.
Under “RBNS enrichment (R)”, `GAAGAGAAUACCCCCUCUCUACCCCUGCUCCAAGACACUGUAGAUGCUAGUGUCGGAGUGUUCUCUGUAACGCGACAGUUCCUUCUGUUGCAAUAGCCCCCCUGCAACAC` is recorded as 0.793.
`AUUAGGUGUUAAGAGUUUCCAAACGUGUUUUCUUUUUUCUUUUAUUGUUUGCUUAAACUUUGAAGAAAUAUGUGCCUCAGCUUAGAUGUUUUGUCUUCCCCUUUCUGCAC`: “RBNS enrichment (R)” 0.773.
`UAGUCCAGAAGAAUACCUGGCAGUAGAAGAAAUGAAUAUUCAAGAGGAAGAUAAAUGCGAGAGGGCAAUCCUUUACUAUUCUCAUAUUUAUUUAUCUCUCAUUCUGUAUA`: “RBNS enrichment (R)” 0.311.
For `CUGCCAAAAUGCUCCGAAAUCUAAAACGUGUUGAGCACCAACAGGAUACCACAAGUAAAAACUUUAGUUAGUUCAUCUACAAAAGUAUUCAAAAGAAUACAUAGACUGGA`, “RBNS enrichment (R)” read 0.289.
`UGUAAAGUGCGAGGGGUGGGCUGUGCCCAGCACCCAGGGCCUAGGGGGCAAUUCUCCCUAGUGCCUCUGCACCAGACACCACAAAACCUCAGCCAUGCUGCCGCCGAAGG` — result for “RBNS enrichment (R)”: 0.319.

Study 3
Target: Histone acetyltransferase KAT6A, both winged helices, GST fusion (KAT6A, Homo sapiens, UniProt Q92794, residues 1-181)
Technique: protein binding microarray
Molecule type: double-stranded DNA, one strand shown
Matrix: in vitro
Tested at: not given
Setting: 8-mer, flanks averaged, mean of 2 arrays, mostly near background
Relative to: not given
Reading: higher = stronger binding
Construct (chain): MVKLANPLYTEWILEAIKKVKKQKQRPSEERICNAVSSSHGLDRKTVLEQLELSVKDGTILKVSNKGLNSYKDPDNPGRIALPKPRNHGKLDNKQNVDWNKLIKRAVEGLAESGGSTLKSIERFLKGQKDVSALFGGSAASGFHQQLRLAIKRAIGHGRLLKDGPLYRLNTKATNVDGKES
With `ATACGGGC` the E-score was 0.211.
With `CGCCAGTC` the E-score was 0.0827.
`CTTCCGGA` has an E-score of 0.0921.
`CGAGATCA` gave an E-score of -0.0378.
`ACCGTGCG` has an E-score of 0.249.
With `ATAATGAG` the E-score was -0.13.
The E-score of `ATCCTACA` is reported as -0.213.
`ATCAGCGA` gave an E-score of 0.0595.
The E-score of `ATTAGGTG` is reported as -0.177.
The E-score of `GCAGATGA` is reported as -0.147.
For `AACCTTAT`, the E-score was -0.0118.
`TCAACGAA` has an E-score of -0.077.
`TGTATAAA` gave an E-score of -0.0551.
`AGATTGGA` gave an E-score of -0.262.
`CACCCCAG` has an E-score of -0.161.
With `CGTCGTTC` the E-score was 0.189.
With `ACGAACAA` the E-score was 0.217.
`ATGCAGAC` has an E-score of -0.0751.
With `ACACGAGC` the E-score was -0.0191.
`GCAGCCCA` has an E-score of -0.0793.
`AATGCAGA` has an E-score of -0.0554.
`GACGAACA` gave an E-score of 0.102.

Study 4
Target: Interferon regulatory factor 5, full length, phosphomimetic (IRF5, Homo sapiens, UniProt Q13568-2, residues 1-514, S451D/S453D/S456D/S462D)
Technique: protein-binding microarray
Molecule type: double-stranded DNA, one strand shown
Matrix: in vitro
Tested at: 940 nM top
Setting: 60-bp whole probe
With: salmon DNA 0.4 mg/ml
Relative to: random background probes
Reading: higher = stronger binding
All sequences stand within: GCCTAGCAC … GTCTTGATTCGCTTGACGCTGCTG
Under “fitted relative affinity”, `GACCGTATCGGACTGGGGACGTGCTAG` is recorded as 0.55 z-score.
For `TCATTTTTCTAATTTACACTGTGCTAG`, “fitted relative affinity” read 1.18 z-score.
Under “fitted relative affinity”, `GACGGTCTCGGTTTCGGGTCGTGCTAG` is recorded as 8.65 z-score.
`GTAGGTCTCCTTATCCTTTAGTGCTAG` — result for “fitted relative affinity”: 0.59 z-score.
`TTAGGACTGGGACTGGATTAGTGCTAG` — result for “fitted relative affinity”: -0.358 z-score.
Under “fitted relative affinity”, `CACTTTCTTTAACTCATTCTGTGCTAG` is recorded as 2.81 z-score.
For `AAAACTAGGGCATTTAGAAAAGTGCTA`, “fitted relative affinity” read -0.491 z-score.
`TTAAAACTGGGGTTTCGATTAGTGCTA` — result for “fitted relative affinity”: 5.67 z-score.
`TTCATTTTGTGTCTGGGCATGTGCTAG` — result for “fitted relative affinity”: 0.0895 z-score.
`TCATGTCCCTATTTAAGACTGTGCTAG`: “fitted relative affinity” 0.308 z-score.
For `TTAGAACTGAGTATCTATTAGTGCTAG`, “fitted relative affinity” read 0.68 z-score.
`TTAGATTCCAGTTTAGATTAGTGCTAG`: “fitted relative affinity” 0.33 z-score.
For `TTAGGTCTCGGATTGGGTTAGTGCTAG`, “fitted relative affinity” read 1.85 z-score.
`GTGAAATAAGGGAGGCCTAGGTGCTAG`: “fitted relative affinity” -0.744 z-score.
Under “fitted relative affinity”, `GACGATCTCATTTTCGAGACGTGCTAG` is recorded as 0.831 z-score.
`GACGAACTGAGACTGGAGTCGTGCTAG` — result for “fitted relative affinity”: -0.263 z-score.
Under “fitted relative affinity”, `GACGGTTTCGGTTCCGGTACGTGCTAG` is recorded as 14 z-score.
Under “fitted relative affinity”, `CTAGGTCTCGGTCTCGGTTAGTGCTAG` is recorded as 4.95 z-score.
`TTAGGTTTCGACACCGGGTTAGTGCTA`: “fitted relative affinity” 8.85 z-score.
For `GTAGAAAATTCATGTTATAAGTGCTAG`, “fitted relative affinity” read -0.504 z-score.
`TTGGTGCTCATTTTTTTTGCGTGCTAG` — result for “fitted relative affinity”: 0.441 z-score.
Under “fitted relative affinity”, `TCCATTTTCTAAATTCCCTAGTGCTAG` is recorded as 1.02 z-score.

Repeated from above (study 1):
`AGUCCUGUGCUACACAUCGUAUGUACCGAAUCGGGGUUUGGGGAGGGGAAAAAGGGGAAAGUAUUAUGUUACGCCGUUCGGAUCUGCACU` has a log2 enrichment of 0.209.
`CAAGUCCUGUGCUACACAUCGUAUGUACCGAAUCGGAAAAAAAGGAGGAAAAAGGAAAGUAUUAUGUUACGCCGUUCGGAUCUGCACUUC` gave a log2 enrichment of -0.923.
With `CACAGACAACACGCACCCACACAGACACAGAGGGACGGGGUUGGGAUGGGGACAGGGUGCACAGCAGGGCGGGGUAGGACCCCAGCCCCU` the log2 enrichment was 1.98.
`UGGCCCUGGUGGCAUGCGGGGAGGAAGAGGUGGCCUCAUGGAUCGUGGUGGUCCGGGUGGAAUGUUCAGAGGUGGCCGUGGUGGAGACAG` has a log2 enrichment of 0.141.
The log2 enrichment of `AGUCCUGUGCUACACAUCGUAUGUACCGAAUCGGGUUUUUUUGGGAAAAAGGGUGGGAAAGUAUUAUGUUACGCCGUUCGGAUCUGCACU` is reported as 0.013.
`AGUCCUGUGCUACACAUCGUAUGUACCGAAUCGGGUGGGUUUUUGGGAAAAAAAGGGAAAGUAUUAUGUUACGCCGUUCGGAUCUGCACU` has a log2 enrichment of -0.325.
`CUGUGCUACACAUCGUAUGUACCGAAUCGGGUUUUUUUGGGUUUUUUUGGGUUUUUUUGGGAAAGUAUUAUGUUACGCCGUUCGGAUCUG` has a log2 enrichment of -1.
`UGGGAGGUGGAUUUUGUUUAUUCUUUUAGCUCAUUUCCAGGGGUGGGAAUUUUUUUUUAAUAUGUGUCAUGAAUAAAGUUGUUUUUGAAA` gave a log2 enrichment of 0.0815.
`AAGUCCUGUGCUACACAUCGUAUGUACCGAAUCGGCCCCGGGGCCCCGGCCCCGGGAAAGUAUUAUGUUACGCCGUUCGGAUCUGCACUU` has a log2 enrichment of -1.28.
